# Measured values from different studies.
# Lines come from different studies, so protocols differ. Numbers after ± are the reported error.
Substance,cell line,test,setting,how to read,measurement,value
fluorouracil,HCT-116,"cell viability, MTS",,,IC50,3.62 ± 1.22 µM
C(CCCCCN1COOC2(CCCC2)OOC2(CCCC2)OOC1)CCCCN1COOC2(CCCC2)OOC2(CCCC2)OOC1,HEK293,"cytotoxicity, 7-AAD flow cytometry",,,IC50,15.3 ± 0.29 µM
CCOc1ccc(Cc2nc3cc(C(=O)N(CC)CC)ccc3n2CCC(C)C)cc1,N9,"Western blot, item: IL-1β and iNOS","1, 2.5 and 5 µM, 24 h, added: LPS 100 ng/mL",,M1 marker levels,decreased
C1CCC2(C1)OOCOCOOC1(CCCC1)OO2,HEK293,"cytotoxicity, 7-AAD flow cytometry",,,IC50,18.3 ± 0.31 µM
CC[C@H](C)[C@H](NC(=O)[C@H](CO)NC(=O)[C@@H]1CCCN1C(=O)[C@H](CO)NC(=O)[C@@H](N)CCSC)C(=O)N[C@@H](CC(C)C)C(=O)N[C@@H](CCCCN)C(=O)N[C@@H](Cc1c[nH]cn1)C(=O)N[C@@H](Cc1c[nH]c2ccccc12)C(=O)N[C@@H](CO)C(=O)N[C@@H](CCCNC(=N)N)C(=O)N[C@@H](CCC(N)=O)C(=O)NCC(=O)NCC(=O)NCC(=O)N[C@@H](CCCCN)C(=O)N[C@@H](CCCCN)C(=O)N[C@@H](CC(C)C)C(=O)N[C@@H](CC(C)C)C(=O)NCC(=O)N[C@@H](CC(C)C)C(=O)N[C@@H](CC(C)C)C(=O)N[C@@H](CC(C)C)C(=O)N[C@@H](CCCCN)C(=O)N[C@@H](CC(C)C)C(=O)N[C@@H](CCCCN)C(=O)N[C@@H](CC(C)C)C(=O)N[C@@H](CCCCN)C(=O)O,HEK293T,,,baseline: CT10 over MIC,selectivity index,16
Cc1ccc(-c2csc(N(CC3OC(n4c[n+](Cc5ccccc5)c5c(=O)[nH]c(NC(=O)c6ccccc6)nc54)C4OC(C)(C)OC34)P(=O)([O-])O)n2)cc1 (stereo not drawn),Vero,"cell growth, SRB",,,IC50,> 100 µM
C1CCCC2(CC1)OOCOCOOC1(CCCCCC1)OO2,HEK293,"cytotoxicity, 7-AAD flow cytometry",,,IC50,16.4 ± 0.28 µM
Cc1ccc2[nH]c(CNCCC[C@H]3CCOC3)cc(=O)c2c1,cells expressing human DRD4,arrestin over Gαi/o signalling,,baseline: quinpirole,bias factor,7.8 fold
Cc1cc(N(CCCl)CCCl)ccc1C=O,ACHN,"cell growth, inhibitor, MTT",,,IC50,6.13 µg/mL
O=C(O[C@@H]1[C@@H](O)[C@H](Oc2cc(O)c(C(=O)CCc3ccccc3)c(O)c2)O[C@@H]2COC(=O)c3cc(O)c(O)c(O)c3-c3c(cc(O)c(O)c3O)C(=O)O[C@@H]12)c1cc(O)c(O)c(O)c1,porcine alveolar macrophages,,,baseline: CC50 over EC50,selectivity index,251
CC1CCC2(CC1)OOCOCOOC1(CCC(C)CC1)OO2 (stereo not drawn),U-937,"cytotoxicity, 7-AAD flow cytometry",,,IC50,7.41 ± 0.11 µM
CC[C@H](C)[C@H](NC(=O)[C@H](CO)NC(=O)[C@@H]1CCCN1C(=O)[C@H](CO)NC(=O)[C@@H](N)CCSC)C(=O)N[C@@H](CC(C)C)C(=O)N[C@@H](CCCCN)C(=O)N[C@@H](Cc1c[nH]cn1)C(=O)N[C@@H](Cc1c[nH]c2ccccc12)C(=O)N[C@@H](CO)C(=O)N[C@@H](CCCNC(=N)N)C(=O)N[C@@H](CCC(N)=O)C(=O)NCC(=O)NCC(=O)NCC(=O)N[C@@H](CCCCN)C(=O)N[C@@H](CC(C)C)C(=O)N[C@@H](CCCCN)C(=O)N[C@@H](CCCCN)C(=O)N[C@@H](CC(C)C)C(=O)N[C@@H](CC(C)C)C(=O)N[C@@H](CC(C)C)C(=O)NCC(=O)N[C@@H](CC(C)C)C(=O)N[C@@H](CC(C)C)C(=O)N[C@@H](CC(C)C)C(=O)N[C@@H](CCCCN)C(=O)N[C@@H](CCCCN)C(=O)O,HEK293T,,,baseline: CT10 over MIC,selectivity index,32

# Excerpt of the above:
Substance,cell line,test,setting,how to read,measurement,value
C1CCCC2(CC1)OOCOCOOC1(CCCCCC1)OO2,HEK293,"cytotoxicity, 7-AAD flow cytometry",,,IC50,16.4 ± 0.28 µM
